Measured values from different studies.
Values joined by “and” are separate records of one study, mostly repeats; a detail may differ.

SMILES = C[C@H](NC(=O)c1c(C(F)F)nn(C)c1Oc1cccc(C(F)(F)F)c1)c1ccc(C(=O)O)cc1; assay = irRECIST best overall response; test system = patients with advanced tumours; conditions = dose not given, all dose groups combined; endpoint = patients with stable disease; value = 23.3%
SMILES = O=C(OC(C(F)(F)F)C(F)(F)F)N1CCN(Cc2cccc(Oc3ccccc3)c2)CC1; assay = PET blocking study; test system = rhesus monkey, brain thalamus; conditions = intravenous, 0.01 mg/kg, compound pretreatment, together with: [18F]T-401 tracer; endpoint = volume of distribution; value = 7.62 mL/cm3
SMILES = COC(=O)CCc1ccc(OCC(O)CNC(C)C)cc1 (stereo not drawn); test system = healthy male humans; conditions = concentration not given, 5 min, together with: saline; endpoint = heart rate; value = 61.7 beats/min
SMILES = CCCCC1(CCCC)CN(c2ccccc2)c2cc(SC)c(OCC(=O)N[C@@H](C(=O)NCC(=O)O)c3ccccc3)cc2S(=O)(=O)C1; assay = measured: 7α-hydroxy-4-cholesten-3-one; test system = human, plasma; conditions = 10 mg once daily, day 11; endpoint = plasma C4; value = 48.9 ng/mL
SMILES = OC(CCN1CCCCC1)(c1ccccc1)C1CC2C=CC1C2 (stereo not drawn); assay = resting-state EEG; test system = healthy elderly humans; conditions = oral, 4 mg, eyes closed, LS mean; endpoint = power, theta EEG, Fz-Cz; value = 3.2 µV²
SMILES = O=C(NO)c1ccc(CN(c2cnccn2)c2cnccn2)cc1; test system = human; conditions = 400 mg BID; endpoint = progression-free survival; value = 12.6 months
SMILES = N#Cc1ccc2c(-c3ccncc3)c(-c3ccc(F)cc3)nn2c1; assay = kinase binding, competitor, MIB/MS competition, measured: HRR25; test system = Candida albicans cell lysate; conditions = 10 µM; scale = relative to: DMSO; endpoint = log2 fold change; value = -2.68
SMILES = CN[C@@H]1COc2c(S(=O)(=O)NC(=O)Nc3c4c(cc5c3CCC5)CCC4)cnn2C1; assay = measured: IL-18; test system = human participants, whole blood ex vivo; conditions = 900 mg single dose, 24 h, IL-18, circulating, adjusted for, together with: LPS/ATP; scale = relative to: baseline; endpoint = inhibition; value = 74.9%
SMILES = CC[C@H](C)[C@H](NC(=O)[C@H](C)NC(=O)CNC(=O)[C@H](Cc1ccccc1)NC(=O)[C@H](CC(N)=O)NC(=O)[C@H](CC(N)=O)NC(=O)[C@H](CO)NC(=O)[C@H](CO)NC(=O)[C@H](Cc1c[nH]cn1)NC(=O)[C@@H](NC(=O)[C@H](CC(C)C)NC(=O)[C@H](Cc1ccccc1)NC(=O)[C@H](CC(N)=O)NC(=O)[C@H](C)NC(=O)[C@H](CC(C)C)NC(=O)[C@H](CCCNC(=N)N)NC(=O)[C@H](CCC(N)=O)NC(=O)[C@@H](NC(=O)[C@H](C)NC(=O)[C@@H]1CSSC[C@H](NC(=O)[C@@H](N)CCCCN)C(=O)N[C@@H](CC(N)=O)C(=O)N[C@@H]([C@@H](C)O)C(=O)N[C@@H](C)C(=O)N[C@@H]([C@@H](C)O)C(=O)N1)[C@@H](C)O)C(C)C)C(=O)N[C@@H](CC(C)C)C(=O)N[C@@H](CO)C(=O)N[C@@H](CO)C(=O)N[C@H](C(=O)N[C@@H](CC(N)=O)C(=O)N[C@H](C(=O)NCC(=O)N[C@@H](CO)C(=O)N[C@@H](CC(N)=O)C(=O)N[C@H](C(=O)N[C@@H](Cc1ccc(O)cc1)C(N)=O)[C@@H](C)O)C(C)C)[C@@H](C)O; assay = live/dead staining; test system = isolated mouse islets; conditions = 10 µM, 24 h; endpoint = viability; value = 61%
SMILES = C[C@H]1O[C@@H](O[C@H]2CC[C@@]3(C)[C@@H](CC[C@]4(C)[C@@H]3C=C[C@]35OC[C@@]6(CCC(C)(C)C[C@H]63)[C@@H](O)C[C@]54C)[C@]2(C)CO)[C@H](O)[C@@H](O[C@@H]2O[C@H](CO)[C@@H](O)[C@H](O)[C@H]2O)[C@H]1O; assay = Western blot, measured: PPARα; test system = mice, normal control diet, liver; conditions = dose not given, high dose, unit not given; scale = relative to: β-actin; endpoint = protein level; value = 0.925 and 0.682 and 0.699
SMILES = NC(=O)c1cnc2[nH]ccc2c1N[C@@H]1[C@@H]2CC3C[C@H]1C[C@@](O)(C3)C2; assay = flow cytometry; test system = Japanese healthy men, blood; conditions = oral, 100 mg twice daily, 72 h after day 7 dose; scale = relative to: baseline; endpoint = CD4+CD28+ naive T-cell change; value = -4.82%
SMILES = CCc1c(C)nc(-c2ccc(Cl)s2)nc1Nc1ccc(CC(=O)O)cc1; assay = histology; test system = C57BL/6J mouse, MCD diet MASH model; conditions = intraperitoneal, 0.3 mg/kg daily, MCD diet 6 weeks, dosed final two weeks; scale = relative to: untreated; endpoint = liver parenchymal dysregulation; value = decreased
SMILES = O=C(O)c1c(-c2ccc(Cl)cc2)csc1NC(=O)c1cccc2ccccc12; assay = hot plate test; test system = ICR mouse; conditions = intragastric, 20 mg/kg, 3 h; scale = relative to: vehicle; endpoint = pain response latency; value = no effect
SMILES = O=C(COc1ccc(Cl)cc1)NC12CC(c3nnc([C@H]4C[C@@H](OC(F)(F)F)C4)o3)(C1)C2; assay = measured: CHAC1; test system = PBMC ex vivo stimulated, human ALS patients; conditions = 100 mg, D7 predose; scale = relative to: baseline; endpoint = mRNA level change; value = -67.5%
SMILES = CN(C)C(=O)Oc1cccc([N+](C)(C)C)c1; test system = rat cisatracurium-induced neuromuscular block; conditions = 0.004 mg/kg; endpoint = twitch response; value = 25.8% and 19% and 25.5% and 13.4%
SMILES = O=C(O)/C=C/c1ccc(O)c(O)c1; test system = C57BL/6 mouse, myocardial ischaemia-reperfusion, serum; conditions = 45 mg/kg; endpoint = SOD level; value = increased
SMILES = COc1ccc(F)cc1C(=O)NCc1ccc(-c2nn([C@@H](C)C(F)(F)F)c(N)c2C(N)=O)cc1; test system = CLL/SLL patients, BTK wild type; conditions = dose not given; endpoint = overall response rate; value = 66%
SMILES = O=C(O)CNC(=O)Cc1ccccc1; test system = ventricular cardiomyocytes, C57BL/6 mouse; conditions = dose not given, 0.62 s; endpoint = sarcomere length; value = 1.69 µm
SMILES = CCN1CCN(Cc2ccc(Nc3ncc(F)c(-c4cc(F)c5nc6n(c5c4)[C@H](C)CCC6)n3)nc2)CC1; test system = human advanced solid tumours; conditions = 100 mg, phase Ia monotherapy RECIST 1.1; endpoint = partial response; value = 0%
SMILES = CC[C@@H]1[C@H](F)C(=O)N[C@@H]1COc1nccc2cc(C(N)=O)c(OC)cc12; assay = ATP-site probe binding, ActivX profiling, measured: TAO1, TAO3; test system = THP-1 cell lysate; conditions = 0.04 mM, Lys2 site; endpoint = inhibition; value = -1.6%
SMILES = C[C@H](Oc1ccc(Br)cc1-c1ccon1)C(=O)O; assay = mean CMAP amplitude; test system = human, tibialis anterior muscle; conditions = 800 mg, SAD; endpoint = difference from placebo; value = 0.073 mV
SMILES = N#Cc1ccn2c(-c3ccncc3)c(-c3ccc(F)cc3)nc2c1; assay = kinase binding, competitor, MIB/MS competition, measured: SSK2; test system = Candida albicans cell lysate; conditions = 1 µM; scale = relative to: DMSO; endpoint = log2 fold change; value = 0.0698
SMILES = CC(C)NCC(O)c1ccc(O)c(O)c1 (stereo not drawn); test system = ventricular cardiomyocytes, C57BL/6 mouse; conditions = dose not given, 0.312 s; endpoint = sarcomere length; value = 1.72 µm
SMILES = Cn1cc([C@H]2C[C@H]3CSC(N)=N[C@@]3(c3ccc(F)cc3F)CO2)cn1; assay = measured: Aβx-42; test system = Mus musculus wild-type, brain; conditions = subcutaneous, 3 mg/kg, 9 h; endpoint = Aβ42 level; value = 0.68 ng/g

A few entries again:
SMILES = O=C(COc1ccc(Cl)cc1)NC12CC(c3nnc([C@H]4C[C@@H](OC(F)(F)F)C4)o3)(C1)C2; assay = measured: CHAC1; test system = PBMC ex vivo stimulated, human ALS patients; conditions = 100 mg, D7 predose; scale = relative to: baseline; endpoint = mRNA level change; value = -67.5%
SMILES = CCc1c(C)nc(-c2ccc(Cl)s2)nc1Nc1ccc(CC(=O)O)cc1; assay = histology; test system = C57BL/6J mouse, MCD diet MASH model; conditions = intraperitoneal, 0.3 mg/kg daily, MCD diet 6 weeks, dosed final two weeks; scale = relative to: untreated; endpoint = liver parenchymal dysregulation; value = decreased
SMILES = O=C(O)CNC(=O)Cc1ccccc1; test system = ventricular cardiomyocytes, C57BL/6 mouse; conditions = dose not given, 0.62 s; endpoint = sarcomere length; value = 1.69 µm
